Published values of several laboratories.
Protocols differ between the studies behind these lines.

CCCC(C)Oc1cccc(NC(=O)c2cccnc2)c1 (stereo not drawn) — MIC (Aspergillus fumigatus; microbial growth, broth dilution; MF5668): 128 µg/mL
CC1C=CC=CC(C)C2C=CC3CC(C)(O)C(Cl)C(C)C3C2C(=O)C(Cl)(Cl)C(=O)C(C)C(=O)O1 (stereo not drawn) — MIC (Staphylococcus aureus; MRSA clinical isolate; OXA SXT resistant): 0.1 µg/mL
CC1(C)[C@H](NC(=O)/C(=N\OC2(C(=O)O)CC2)c2nsc(N)n2)C(=O)N1OS(=O)(=O)O — MIC (Serratia marcescens; agar dilution; ATCC 21074, susceptible): 1 µg/mL
Cc1c(CN(C)C(=O)/C=C/c2cnc3c(c2)CC(N)C(=O)N3)oc2ccccc12 (stereo not drawn) — MIC (Escherichia coli; broth microdilution; AR-0058): 8 µg/mL
CC1(C)C(NC(=O)C(=NOC2(C(=O)O)CCC2)c2csc(N)n2)C(=O)N1OS(=O)(=O)O (stereo not drawn) — MIC (Serratia marcescens; agar dilution; ATCC 21074, susceptible): 0.25 µg/mL
C[C@@H]1C(=O)O[C@@H](C)/C=C/C=C\[C@@H](C)[C@@H]2C=C[C@@H]3C[C@@]4(C)O[C@H]4[C@@H](C)[C@H]3[C@@H]2C(=O)C(Cl)(Cl)C1=O — MIC (Staphylococcus aureus; MSSA clinical isolate; CLI ERY resistant): 0.025 µg/mL
CC1(C)[C@H](NC(=O)/C(=N\OCCN)c2csc(N)n2)C(=O)N1OS(=O)(=O)O — MIC (Serratia marcescens; agar dilution; ATCC 21074, susceptible): 1 µg/mL
N=C(N)NCCC[C@@H]1NC(=O)[C@H](CCCNC(=N)N)NC(=O)[C@H](CCCNC(=N)N)NC(=O)[C@@H](CCCNC(=N)N)NC(=O)[C@H](Cc2ccc3ccccc3c2)NC(=O)[C@H](Cc2ccc3ccccc3c2)NC(=O)[C@H](Cc2ccc3ccccc3c2)NC1=O — MIC (Blastomyces dermatitidis; BD-1): 2 µg/mL
C#CCNC(=O)C(C)(C)O/N=C(\C(=O)N[C@@H]1C(=O)N(S(=O)(=O)O)[C@H]1C)c1csc(N)n1 — MIC (Serratia marcescens; agar dilution; ATCC 21074 susceptible): 2 µg/mL
N=C(N)NCCC[C@@H]1NC(=O)[C@@H](CCCNC(=N)N)NC(=O)[C@H](CCCNC(=N)N)NC(=O)[C@@H](C(c2ccccc2)c2ccccc2)NC(=O)[C@@H](C(c2ccccc2)c2ccccc2)NC(=O)[C@@H](C(c2ccccc2)c2ccccc2)NC(=O)[C@@H](CCCNC(=N)N)NC1=O — MIC (Blastomyces dermatitidis; BD-3): 2 µg/mL
COC1C=COC2(C)Oc3c(C)c(O)c4c(c3C2=O)C2=NC3(CCN(CC(C)C)CC3)NC2=C(NC(=O)C(C)=CC=CC(C)C(O)C(C)C(O)C(C)C(OC(=O)Nc2cccnn2)C1C)C4=O (stereo not drawn) — MIC (Mycobacteroides abscessus; microbial growth, agar dilution; ATCC19977): 0.48 µM
C=C(NC(=O)c1csc(-c2nc3c(cc2O)-c2nc(cs2)C(=O)NC(C(C)O)C(=O)NC(=C(C)OC)c2nc(cs2)C(=O)NC2c4nc(cs4)C(=O)NC(COC(=O)c4c5c6c(cccc6n4O)COC(=O)C(OC4CC(C)(O)C(N(C)C)C(C)O4)C2OC5)c2nc-3cs2)n1)C(N)=O (stereo not drawn) — MIC (Enterococcus faecalis; microbial growth, agar dilution; ATCC29212): 0.0312 µg/mL
CC[C@H](C)[C@H](NC(=O)[C@H](CCCNC(=N)N)NC(=O)[C@H]1CCCN1C(=O)[C@H](Cc1ccc(O)cc1)NC(=O)[C@@H](NC(=O)[C@@H](NC(=O)[C@H](CCCNC(=N)N)NC(=O)[C@H](Cc1ccccc1)NC(=O)[C@@H](NC(=O)[C@H](Cc1c[nH]c2ccccc12)NC(=O)[C@H](Cc1c[nH]c2ccccc12)NC(C)=O)C(C)C)C(C)C)C(C)C)C(=O)N[C@H](C(=O)N[C@@H](Cc1ccc(O)cc1)C(=O)N[C@@H](CCCNC(=N)N)C(=O)N[C@@H](CCCNC(=N)N)C(=O)N[C@H](C(=O)N[C@@H](CCCNC(=N)N)C(=O)N[C@@H](Cc1c[nH]c2ccccc12)C(=O)N[C@H](C(=O)NCC(=O)N1CCC[C@H]1C(=O)N[C@@H](CCCCN)C(=O)N[C@@H](CCCCN)C(N)=O)[C@@H](C)O)C(C)C)C(C)C — MIC (Corynebacterium glutamicum; ATCC 13032; 37 °C): inactive
CC1(C)C(NC(=O)C(=NOC2(C(=O)O)CC2)c2csc(N)n2)C(=O)N1OS(=O)(=O)O (stereo not drawn) — MIC (Serratia marcescens; agar dilution; ATCC 21074, susceptible): 0.25 µg/mL
N=C(N)NCCC[C@@H]1NC(=O)[C@H](CCCNC(=N)N)NC(=O)[C@@H](CCCNC(=N)N)NC(=O)[C@@H](CCCNC(=N)N)NC(=O)[C@@H](C(c2ccccc2)c2ccccc2)NC(=O)[C@H](Cc2c[nH]c3ccccc23)NC(=O)[C@@H](C(c2ccccc2)c2ccccc2)NC1=O — MIC (Blastomyces dermatitidis; BD-2): 1 µg/mL

Repeated from above:
Cc1c(CN(C)C(=O)/C=C/c2cnc3c(c2)CC(N)C(=O)N3)oc2ccccc12 (stereo not drawn) — MIC (Escherichia coli; broth microdilution; AR-0058): 8 µg/mL
CC1(C)C(NC(=O)C(=NOC2(C(=O)O)CCC2)c2csc(N)n2)C(=O)N1OS(=O)(=O)O (stereo not drawn) — MIC (Serratia marcescens; agar dilution; ATCC 21074, susceptible): 0.25 µg/mL
C[C@@H]1C(=O)O[C@@H](C)/C=C/C=C\[C@@H](C)[C@@H]2C=C[C@@H]3C[C@@]4(C)O[C@H]4[C@@H](C)[C@H]3[C@@H]2C(=O)C(Cl)(Cl)C1=O — MIC (Staphylococcus aureus; MSSA clinical isolate; CLI ERY resistant): 0.025 µg/mL
